Results from different studies.
Each line is one published result; not all experiments were run side by side. Numbers after ± are the reported error.
PARP1: Poly [ADP-ribose] polymerase 1 (PARP1, Homo sapiens, UniProt P09874)
Chain of UniProt P09874 (whole entry, looked up): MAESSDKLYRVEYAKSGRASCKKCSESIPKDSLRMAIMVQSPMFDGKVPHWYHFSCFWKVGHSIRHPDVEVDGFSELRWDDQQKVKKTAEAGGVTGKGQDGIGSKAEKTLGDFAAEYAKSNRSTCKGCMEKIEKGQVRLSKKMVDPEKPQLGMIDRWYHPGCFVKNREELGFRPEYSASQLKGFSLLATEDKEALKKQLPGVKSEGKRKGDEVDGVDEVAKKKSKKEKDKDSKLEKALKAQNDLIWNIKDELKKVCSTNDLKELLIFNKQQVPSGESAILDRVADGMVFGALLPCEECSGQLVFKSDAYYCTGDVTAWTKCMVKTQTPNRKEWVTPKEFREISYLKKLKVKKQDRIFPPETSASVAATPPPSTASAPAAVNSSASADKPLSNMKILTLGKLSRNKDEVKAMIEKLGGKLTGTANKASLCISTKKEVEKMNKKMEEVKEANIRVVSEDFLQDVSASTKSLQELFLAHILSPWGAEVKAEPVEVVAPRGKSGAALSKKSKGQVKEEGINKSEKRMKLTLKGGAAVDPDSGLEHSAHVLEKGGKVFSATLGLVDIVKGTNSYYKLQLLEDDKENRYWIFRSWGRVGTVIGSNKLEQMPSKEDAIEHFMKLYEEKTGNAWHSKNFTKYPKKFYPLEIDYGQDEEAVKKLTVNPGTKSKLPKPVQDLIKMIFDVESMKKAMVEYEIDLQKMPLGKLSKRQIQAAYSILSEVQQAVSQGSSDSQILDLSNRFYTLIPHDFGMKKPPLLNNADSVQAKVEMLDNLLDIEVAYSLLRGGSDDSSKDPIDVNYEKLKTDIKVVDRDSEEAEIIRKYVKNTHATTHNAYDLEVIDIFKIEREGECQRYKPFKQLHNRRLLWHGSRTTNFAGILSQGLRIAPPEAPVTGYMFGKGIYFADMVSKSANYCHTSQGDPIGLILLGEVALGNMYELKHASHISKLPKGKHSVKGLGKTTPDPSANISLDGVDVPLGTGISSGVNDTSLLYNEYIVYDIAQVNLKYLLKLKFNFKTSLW
Chain of UniProt P33527 (whole entry, looked up): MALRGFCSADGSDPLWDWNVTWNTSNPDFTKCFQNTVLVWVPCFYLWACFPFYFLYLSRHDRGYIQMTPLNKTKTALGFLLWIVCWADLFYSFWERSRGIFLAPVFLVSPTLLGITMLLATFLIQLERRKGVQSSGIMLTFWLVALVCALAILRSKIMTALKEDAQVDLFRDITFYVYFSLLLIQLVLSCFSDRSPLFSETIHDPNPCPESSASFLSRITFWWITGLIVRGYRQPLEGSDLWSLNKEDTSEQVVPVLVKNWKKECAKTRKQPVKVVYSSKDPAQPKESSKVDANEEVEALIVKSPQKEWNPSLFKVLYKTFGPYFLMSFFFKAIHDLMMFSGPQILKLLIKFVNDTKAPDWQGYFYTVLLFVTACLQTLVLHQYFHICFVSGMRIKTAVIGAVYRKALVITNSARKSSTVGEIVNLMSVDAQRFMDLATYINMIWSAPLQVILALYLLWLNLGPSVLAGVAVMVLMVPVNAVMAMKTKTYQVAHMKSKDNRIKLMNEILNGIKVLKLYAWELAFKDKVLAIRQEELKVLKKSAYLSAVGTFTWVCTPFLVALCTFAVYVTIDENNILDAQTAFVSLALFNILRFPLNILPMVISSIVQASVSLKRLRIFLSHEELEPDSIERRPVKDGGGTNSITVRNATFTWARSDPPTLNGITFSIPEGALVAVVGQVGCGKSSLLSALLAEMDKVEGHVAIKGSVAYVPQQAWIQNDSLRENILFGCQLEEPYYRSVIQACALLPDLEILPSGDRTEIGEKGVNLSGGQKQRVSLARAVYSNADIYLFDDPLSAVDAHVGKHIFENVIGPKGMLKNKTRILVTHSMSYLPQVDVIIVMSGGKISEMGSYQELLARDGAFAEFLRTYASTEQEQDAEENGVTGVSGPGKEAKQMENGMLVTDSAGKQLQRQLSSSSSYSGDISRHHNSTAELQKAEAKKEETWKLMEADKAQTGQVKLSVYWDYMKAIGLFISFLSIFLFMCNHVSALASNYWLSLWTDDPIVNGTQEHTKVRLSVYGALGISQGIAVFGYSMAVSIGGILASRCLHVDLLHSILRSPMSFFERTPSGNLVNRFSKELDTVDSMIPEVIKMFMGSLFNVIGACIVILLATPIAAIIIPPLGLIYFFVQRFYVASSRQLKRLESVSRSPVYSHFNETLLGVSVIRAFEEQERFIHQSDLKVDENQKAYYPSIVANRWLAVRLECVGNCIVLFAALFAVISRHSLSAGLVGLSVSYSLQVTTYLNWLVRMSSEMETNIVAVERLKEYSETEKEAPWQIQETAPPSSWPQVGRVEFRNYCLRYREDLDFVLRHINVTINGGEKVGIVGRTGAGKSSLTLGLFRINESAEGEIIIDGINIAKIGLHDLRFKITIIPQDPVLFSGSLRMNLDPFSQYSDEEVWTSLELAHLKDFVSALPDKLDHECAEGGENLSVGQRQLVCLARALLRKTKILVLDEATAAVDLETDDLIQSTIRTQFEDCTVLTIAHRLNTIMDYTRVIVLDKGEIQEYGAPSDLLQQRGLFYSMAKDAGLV
Chain of UniProt P00772 (whole entry, looked up): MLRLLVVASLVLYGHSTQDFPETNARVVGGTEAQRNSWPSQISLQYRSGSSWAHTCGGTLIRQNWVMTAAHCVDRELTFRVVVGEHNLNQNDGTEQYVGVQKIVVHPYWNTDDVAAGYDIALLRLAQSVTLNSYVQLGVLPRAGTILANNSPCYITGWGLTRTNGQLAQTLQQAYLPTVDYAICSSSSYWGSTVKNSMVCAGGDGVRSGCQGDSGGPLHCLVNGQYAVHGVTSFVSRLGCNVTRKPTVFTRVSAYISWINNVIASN
Chain of UniProt Q06187 (whole entry, looked up): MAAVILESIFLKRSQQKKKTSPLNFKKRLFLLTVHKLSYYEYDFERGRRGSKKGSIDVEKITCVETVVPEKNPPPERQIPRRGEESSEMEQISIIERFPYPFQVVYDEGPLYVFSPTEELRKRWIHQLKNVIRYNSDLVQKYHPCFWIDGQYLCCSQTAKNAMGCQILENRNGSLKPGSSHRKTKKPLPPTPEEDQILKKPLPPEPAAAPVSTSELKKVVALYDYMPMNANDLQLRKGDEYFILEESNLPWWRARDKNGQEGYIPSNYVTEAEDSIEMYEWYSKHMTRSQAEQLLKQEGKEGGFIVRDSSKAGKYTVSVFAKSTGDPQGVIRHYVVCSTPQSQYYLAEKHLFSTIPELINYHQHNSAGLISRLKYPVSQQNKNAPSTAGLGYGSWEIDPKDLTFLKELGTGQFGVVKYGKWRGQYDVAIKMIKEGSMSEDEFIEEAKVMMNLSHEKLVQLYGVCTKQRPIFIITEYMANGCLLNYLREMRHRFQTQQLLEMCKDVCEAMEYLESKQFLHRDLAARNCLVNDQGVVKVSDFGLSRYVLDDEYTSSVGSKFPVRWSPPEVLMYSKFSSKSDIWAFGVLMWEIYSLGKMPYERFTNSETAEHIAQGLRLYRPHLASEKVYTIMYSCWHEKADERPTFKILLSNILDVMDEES
Chain of UniProt P49841 (whole entry, looked up): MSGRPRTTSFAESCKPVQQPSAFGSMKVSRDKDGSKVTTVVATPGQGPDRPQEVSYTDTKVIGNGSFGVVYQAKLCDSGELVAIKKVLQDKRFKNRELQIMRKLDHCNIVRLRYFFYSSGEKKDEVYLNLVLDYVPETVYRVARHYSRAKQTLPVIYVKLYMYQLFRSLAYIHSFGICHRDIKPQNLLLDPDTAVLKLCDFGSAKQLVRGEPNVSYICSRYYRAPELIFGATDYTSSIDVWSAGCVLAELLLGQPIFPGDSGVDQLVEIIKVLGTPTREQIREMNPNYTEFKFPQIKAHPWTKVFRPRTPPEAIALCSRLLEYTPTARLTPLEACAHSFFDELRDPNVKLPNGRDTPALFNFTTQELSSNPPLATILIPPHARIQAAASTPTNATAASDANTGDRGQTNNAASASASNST
Chain of UniProt P31749 (whole entry, looked up): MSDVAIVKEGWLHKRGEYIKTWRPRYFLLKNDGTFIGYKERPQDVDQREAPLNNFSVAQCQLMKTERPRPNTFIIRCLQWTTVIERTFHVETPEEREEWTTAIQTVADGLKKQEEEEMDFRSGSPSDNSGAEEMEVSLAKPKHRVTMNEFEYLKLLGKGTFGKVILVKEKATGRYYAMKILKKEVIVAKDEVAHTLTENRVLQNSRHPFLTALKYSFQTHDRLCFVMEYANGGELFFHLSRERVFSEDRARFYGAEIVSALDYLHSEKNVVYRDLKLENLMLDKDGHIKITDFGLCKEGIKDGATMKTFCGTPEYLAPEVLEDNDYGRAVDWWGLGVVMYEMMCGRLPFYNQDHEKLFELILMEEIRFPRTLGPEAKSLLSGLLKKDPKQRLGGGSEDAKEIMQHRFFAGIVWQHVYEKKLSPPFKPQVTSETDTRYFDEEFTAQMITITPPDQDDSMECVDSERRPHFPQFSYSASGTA
Chain of UniProt P00383 (whole entry, looked up): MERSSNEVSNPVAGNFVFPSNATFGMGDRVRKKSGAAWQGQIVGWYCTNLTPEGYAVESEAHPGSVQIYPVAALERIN
Chain of UniProt Q96D96 (whole entry, unmodified, looked up): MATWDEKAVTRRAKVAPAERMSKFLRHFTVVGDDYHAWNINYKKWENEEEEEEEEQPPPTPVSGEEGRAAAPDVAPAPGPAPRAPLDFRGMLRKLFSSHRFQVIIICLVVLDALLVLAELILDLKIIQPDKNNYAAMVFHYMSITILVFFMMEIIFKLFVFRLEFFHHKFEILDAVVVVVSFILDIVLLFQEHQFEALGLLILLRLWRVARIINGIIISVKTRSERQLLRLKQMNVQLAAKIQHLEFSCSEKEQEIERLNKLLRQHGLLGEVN
Chain of UniProt P23025 (whole entry, looked up): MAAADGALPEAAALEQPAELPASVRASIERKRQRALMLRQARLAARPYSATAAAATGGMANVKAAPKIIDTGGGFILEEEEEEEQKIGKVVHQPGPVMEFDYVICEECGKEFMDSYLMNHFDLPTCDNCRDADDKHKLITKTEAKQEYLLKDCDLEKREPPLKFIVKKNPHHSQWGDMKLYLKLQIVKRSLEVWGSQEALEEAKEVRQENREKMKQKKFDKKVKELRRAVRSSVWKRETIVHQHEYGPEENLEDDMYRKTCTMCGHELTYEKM

With `[Cl-].[Cl-].[Zn+2]` the IC50 was 13.8 µM (Voltage-gated hydrogen channel 1 (HVCN1, Homo sapiens, UniProt Q96D96, D185H/E119H/H140A/H193A); proton current, inhibitor, whole-cell voltage clamp; human cells; pH 6.5, test pulse 120 mV).
For `COc1ccc2nc(/C=C/c3cccc([N+](=O)[O-])c3)n(-c3ccc(C(=O)O)cc3)c(=O)c2c1`, the IC50 was 182 µM (Glutamate NMDA receptor; Grin1/Grin2a (Grin1/Grin2a, Rattus norvegicus, UniProt P35439+Q00959); ion current, two-electrode voltage clamp; oocytes).
With `CCCCCCCCOc1ccccc1C(=O)Nc1ccc(C(=O)OCC[N+](C)(CC)CC)cc1` the IC50 was 5.01 µM (Calmodulin-1, with adenylyl cyclase 8 (CALM1, Homo sapiens, UniProt P0DP23); AC8-calmodulin interaction, NanoBiT complementation; HEK-293T; 30 min pretreatment, together with: rat AC8).
`O=C(O)c1ccc2[nH]c(-c3ccc(OCc4ccc(COc5ccc(-c6nc7cc(C(=O)O)ccc7[nH]6)cc5)cc4)cc3)nc2c1` has an IC50 of 200 µM (Dihydrofolate reductase type 2 (Escherichia coli, UniProt P00383); inhibitor, spectrophotometric kinetic; extrapolated, insoluble above 100 µM).
`CC1=NN(c2cccc(C(=O)O)c2)C(=O)/C1=C\c1ccc(-c2ccc(Cl)c(C(=O)NC3CCOCC3)c2)o1` gave an IC50 of greater than 25 µM (DNA repair protein complementing XP-A cells (Homo sapiens, UniProt P23025); binding to cisplatin-DNA, EMSA; full-length XPA).
With `O=C(CSc1nc2ccccc2c(=O)n1-c1ccccc1)Nc1ccc(C(=O)C=Cc2ccc([N+](=O)[O-])cc2)cc1` the IC50 was 0.311 µM (PARP1; enzyme activity, inhibitor, absorbance).
`COc1ccc(-c2cc(=O)c3c(OC)c([C@@H]4O[C@H](C(=O)NCc5ccc(F)cc5)[C@@H](O)[C@H](O)[C@H]4O)c(OC)cc3o2)cc1OC` has an IC50 of 21.7 µM (Glycogen synthase kinase-3 beta (GSK3B, Homo sapiens, UniProt P49841); enzyme activity, inhibitor, ADP detection).
The IC50 of `C#Cc1ccc2cc(-c3ccccc3)c(=O)oc2c1` is reported as 0.63 µM (Cytochrome P450 1A1 (CYP1A1, Homo sapiens, UniProt P04798); enzyme activity, inhibitor, fluorescence; 6 min, pH 7.6).
With `insulin icodec` the IC50 was 0.00313 µM (Insulin receptor, isoform B (INSR, Homo sapiens, UniProt P06213); binding, competitor, scintillation proximity; solubilized receptor; HSA 0%).
The IC50 of `O=c1[nH]c2ccccc2n1C1CCN(CCCC(c2ccc(F)cc2)c2ccc(F)cc2)CC1` is reported as 7.7 µM (Multidrug resistance-associated protein 1 (ABCC1, Homo sapiens, UniProt P33527); transporter efflux, inhibitor).
`O=C(/C=C/c1nc2cc(F)ccc2[nH]1)c1c(-c2ccc(F)cc2)c2cc(F)ccc2[nH]c1=O` has an IC50 of 15.6 µM (RAC-alpha serine/threonine-protein kinase (AKT1, Homo sapiens, UniProt P31749); enzyme activity, inhibitor, FRET).
`OCCN1CCN(CCC=C2c3ccccc3Sc3ccc(C(F)(F)F)cc32)CC1` gave an IC50 of greater than 114 µM (Ubiquitin carboxyl-terminal hydrolase 2 (USP2, Homo sapiens, UniProt O75604)).
`NC(=O)[C@H]1CCN(c2ncnc(N)c2F)C[C@@H]1N1CCC[C@@H](Nc2cc(Cl)cc(C(F)(F)F)c2)C1=O` has an IC50 of 0.0028 to 0.216 µM (Tyrosine-protein kinase BTK (BTK, Homo sapiens, UniProt Q06187); phosphorylation, inhibitor; human whole blood; 0.5 h, healthy donors, range limit).
`COc1cc2nc(NCc3ccc(CNCCCNC4CCCCC4)cc3)nc(NC3CCNCC3)c2cc1OC` gave an IC50 of 0.0315 µM (C-X-C chemokine receptor type 4 (CXCR4, Homo sapiens, UniProt P61073); ligand displacement, radioligand; cell membranes).
For `Cc1c(OCC(F)(F)F)ccnc1C[S+]([O-])c1nc2ccccc2[nH]1` (stereo not shown), the IC50 was greater than 10 µM (Microtubule-associated protein tau (MAPT, Homo sapiens, UniProt P10636); ligand displacement, radioligand).
For `O=c1c(O)c(-c2ccc(O)c(O)c2)oc2cc(O)cc(O)c12`, the IC50 was 59.7 ± 28.6 µM (Cell division cycle 7-related protein kinase, with DBF4 (CDC7, Homo sapiens, UniProt O00311); enzyme activity, inhibitor, ADP-Glo luminescence; together with: ATP 12.5 µM).
The IC50 of `COc1ccc(C2Oc3c(cccc3C(N)=O)NC2=O)cc1` (stereo not shown) is reported as 0.8 ± 0.15 µM (PARP1).
For `O=C(O[C@@H]1Cc2c(O)cc(O)cc2O[C@@H]1c1cc(O)c(O)c(O)c1)c1cc(O)c(O)c(O)c1`, the IC50 was 209 ± 7 µg/mL (Chymotrypsin-like elastase family member 1 (CELA1, Sus scrofa, UniProt P00772); enzyme activity, inhibitor; 5 min, pH 8.0, 25 °C, together with: N-succinyl-Ala-Ala-Ala-p-nitroanilide 1 mM).
For `O=C(CCc1ccccc1)c1ccccc1OCC(O)CN1CCN(c2ccc(F)cc2)CC1` (stereo not shown), the IC50 was 0.04 µM (ATP-dependent translocase ABCB1 (ABCB1, Homo sapiens, UniProt P08183, Q773R)).

For quick reference, copied from above:
The IC50 of `COc1ccc(C2Oc3c(cccc3C(N)=O)NC2=O)cc1` (stereo not shown) is reported as 0.8 ± 0.15 µM (PARP1).
For `O=C(O[C@@H]1Cc2c(O)cc(O)cc2O[C@@H]1c1cc(O)c(O)c(O)c1)c1cc(O)c(O)c(O)c1`, the IC50 was 209 ± 7 µg/mL (Chymotrypsin-like elastase family member 1 (CELA1, Sus scrofa, UniProt P00772); enzyme activity, inhibitor; 5 min, pH 8.0, 25 °C, together with: N-succinyl-Ala-Ala-Ala-p-nitroanilide 1 mM).
